Results collected from several papers.
Numbered parts are unrelated; each lists some results of a single study.

Study 1 — method: protein-binding microarray; form: double-stranded DNA, one strand shown; medium: in vitro; concentration: 940 nM top; notes: 60-bp whole probe; added: salmon DNA 0.4 mg/ml; relative to: random background probes; direction: higher = stronger binding; all sequences stand within: GCCTAGCAC … GTCTTGATTCGCTTGACGCTGCTG
Target: Interferon regulatory factor 5, full length, phosphomimetic (IRF5, Homo sapiens, UniProt Q13568-2, residues 1-514, S451D/S453D/S456D/S462D)
| Sequence | fitted relative affinity [z-score] |
| --- | --- |
| GACGATTTCGGGACAGGAGACGTGCTA | -0.122 |
| TCAGTTTCCTCTTTCTTACTGTGCTAG | 3.02 |
| TTAGGTTTCCGTTTCGGTTAGTGCTAG | 5.96 |
| GTAGGACTGGGTATCGGTTAGTGCTAG | 3.2 |
| GAAGGTTTCGACTATCGGGACGTGCTA | 6.81 |
| TCAATTCTCCACTTGTGACTGTGCTAG | 0.326 |
| ATCTGCAGCTGACTACACACGTGCTAG | -0.292 |
| GACGATATCGGGATTCGAGACGTGCTA | -0.236 |
| GACGGTTTCGGGACTGGGTACGTGCTA | 6.73 |
| TCAACCATCCCTTATAAAACTGTGCTA | 0.893 |
| TTAGGTATCGTCTTTCGGTTAGTGCTA | 4.92 |
| GACGATATCGGGTAGCGAGACGTGCTA | -0.153 |
| GACGGTATCGACACTGGGGTCGTGCTA | 4.4 |
| TTAGATATCAGTTTCGATAAGTGCTAG | 7.46 |
| TCCTCTCTCTTTCCACTTGTGTGCTAG | 2.69 |
| TCAGATTTCCTTCACCCACTGTGCTAG | 0.96 |
| TCATCTTTGCTCATTTTTACTGTGCTA | 1.2 |

Study 2 — method: RNA Bind-n-Seq; form: RNA; medium: in vitro; concentration: 1 µM; notes: whole 134-nt RNA, ends assumed; added: 150 mM KCl; relative to: input library; direction: higher = stronger binding
Target: Ras GTPase-activating protein-binding protein 1, C-terminal RGG region (G3BP1, Homo sapiens, UniProt Q13283)
Chain of UniProt Q13283 (whole entry, looked up): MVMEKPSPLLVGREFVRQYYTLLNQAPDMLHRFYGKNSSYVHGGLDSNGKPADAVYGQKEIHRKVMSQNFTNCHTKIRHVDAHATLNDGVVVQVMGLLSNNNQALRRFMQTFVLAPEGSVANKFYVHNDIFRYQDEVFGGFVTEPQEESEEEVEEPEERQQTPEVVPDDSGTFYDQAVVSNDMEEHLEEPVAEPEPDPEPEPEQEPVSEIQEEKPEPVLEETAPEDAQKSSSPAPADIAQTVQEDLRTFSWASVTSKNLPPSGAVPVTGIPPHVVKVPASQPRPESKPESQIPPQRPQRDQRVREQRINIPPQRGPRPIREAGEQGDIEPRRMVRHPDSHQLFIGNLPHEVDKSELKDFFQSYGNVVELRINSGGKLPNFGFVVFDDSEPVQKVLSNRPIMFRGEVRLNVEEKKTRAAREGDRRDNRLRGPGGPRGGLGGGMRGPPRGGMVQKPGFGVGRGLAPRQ
All sequences stand within: GGGAGUUCUACAGUCCGACGAUC … UGGAAUUCUCGGGUGUCAAGG
| Sequence | log2 enrichment |
| --- | --- |
| CCUCAAGUCCUGUGCUACACAUCGUAUGUACCGAAUCGGUGGUUUGGUUUGGAAAGUAUUAUGUUACGCCGUUCGGAUCUGCACUUCCAG | -1.02 |
| UCCUGUGCUACACAUCGUAUGUACCGAAUCGGGGUUUUUGGGGUUUUUGGGGUUUUUGGGAAAGUAUUAUGUUACGCCGUUCGGAUCUGC | 0.308 |
| CAAGUCCUGUGCUACACAUCGUAUGUACCGAAUCGGAAAGGGAAAGGGAAAGGGGAAAGUAUUAUGUUACGCCGUUCGGAUCUGCACUUC | -0.913 |
| ACCAUGCAGGUGGGCACCUUUGGGAAGUGGGGCAAGGGGGGGAUAGGGAGGGGGGUAACACUUUGGGAACAGGUGGUCCCAGGUCGUUUC | -0.934 |
| UCCUCAAGUCCUGUGCUACACAUCGUAUGUACCGAAUCGGUGGUGGUGGGGAAAGUAUUAUGUUACGCCGUUCGGAUCUGCACUUCCAGC | -0.45 |
| AGUCCUGUGCUACACAUCGUAUGUACCGAAUCGGUUUUUUUGGAAAAAAAGGAAAGGAAAGUAUUAUGUUACGCCGUUCGGAUCUGCACU | -2.46 |
| AAGUCCUGUGCUACACAUCGUAUGUACCGAAUCGGGUGGGUUUGGGAAAAAAAGGGAAAGUAUUAUGUUACGCCGUUCGGAUCUGCACUU | -0.0296 |
| CCUGUGCUACACAUCGUAUGUACCGAAUCAAACCCCCAAAUUUUUUUAAACCCCCCCAAAAAAGUAUUAUGUUACGCCGUUCGGAUCUGC | -0.898 |
| UGUGCUACACAUCGUAUGUACCGAAUCGGGAAAAAAAGGGGAAAAAAAGGGGAAAAAAAGGGAAAGUAUUAUGUUACGCCGUUCGGAUCU | -0.674 |
| CUCAAGUCCUGUGCUACACAUCGUAUGUACCGAAUCGGGCCGGCCGGGGCCGGAAAGUAUUAUGUUACGCCGUUCGGAUCUGCACUUCCA | -0.986 |
| AAGUCCUGUGCUACACAUCGUAUGUACCGAAUCGGGAAAGGGUUUGGGUUUUUGGGAAAGUAUUAUGUUACGCCGUUCGGAUCUGCACUU | 1.19 |
| ACCAUGCAGGUGGGCAUCUUUGGGAAGUGGGGCAAGGGGGGGAUAGGGAGGGGGGUAACACUUUGGGAACAGGUGGUCCCCGGUCGUUUC | 1.53 |
| UCCUGUGCUACACAUCGUAUGUACCGAAUCGGGAAAAAAAGGGAAAAAGGGAAAAAGGGAAAGUAUUAUGUUACGCCGUUCGGAUCUGCA | -0.674 |
| UCCUGUGCUACACAUCGUAUGUACCGAAUCGGGGUUUGGGGAAAAAGGGGAAAAAGGGGAAAGUAUUAUGUUACGCCGUUCGGAUCUGCA | 2.1 |

Study 3 — method: RNA Bind-n-Seq; form: RNA; medium: in vitro; concentration: 365 nM; relative to: no-protein control; direction: higher = stronger binding
Target: RNA binding protein fox-1 homolog 2, RRM domain, GST-SBP tag (RBFOX2, Homo sapiens, UniProt O43251-10, residues 100-194)
Notes: natural RNA segment, single round, ends assumed
All sequences stand within: GGGAGUUCUACAGUCCGACGAUC … UGGAAUUCUCGGGUGCCAA
Target sequence (chain): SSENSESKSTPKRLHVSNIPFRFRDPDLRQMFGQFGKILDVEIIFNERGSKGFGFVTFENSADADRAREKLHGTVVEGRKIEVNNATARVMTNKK
| Sequence | RBNS enrichment (R) |
| --- | --- |
| GCCUCUCCCCUGCAGCAAACGUUUGCCUGGGCAUUGAGGCAUUUCCAUACAUCUUCUGAAAACUAGGCGGAGGUUUCCAAAUCUCAAUUCUUGACUUCUGUGCACCUGCA | 1.05 |
| UCAUGUGUCUGUGAAGAAUUGUACUUUAAGUGUGUGUCCUCUGAGGUGCUUGAGAAAGUGUACACUGCAGAACUGCCCAUUCUCAUUACUGUGUCCUAUUUUAUUCAUGC | 0.788 |
| GCUGGCAUUCACACGCUUCCAUGGACAAACUUGACUUGCUCUAGGGAACCUUGGGUUAUCAUGUCACGAUGCCUGUGACCAUGAUUUCACGAAGUAGGUUUCCUCUGGCU | 0.439 |
| UUGCUUCAAGCCAGUUUUUCCUUUUUACCCUCCCCCAAUCCAUGAAAGCCUAAGUGUAAAUAUAUAUCUCUUUAUAUUUGUCUAGUCUGGUAAAAGGGAAUUCAGAAGAU | 0.361 |
| ACGUCUGCAGCAGAGGCCCAGUAGCACCGAAUGGUGUCCAAUAAGCUCUGAGCAGUGGCAAUAGAAUGUCAACGGAUUGCAAUCAGAUGGCUCAACUCUGUGUCUCCUGA | 0.272 |
| UAGGAGAAUGGGAGGAGGGUCUCGUGGAAAUGUAGCUAUUGGAUCUUUCCUGCACUUAUGGAAAUGCUUUGUCUUUCCCAAUGAAACUGAUGUUUGCUUGUCUGCUUUCU | 2.67 |
| AGAAGAGGGGAGGUAAGUCUGGGGGCUACGAAGCCGGGCCCCCACACCCUGGCUGAAGUCAGCUUGACCUAGGUCUUGACCCUCAUCCAGCAAGGGACUCGACAGACCCA | 0.307 |
| ACUUCUUGCCCAGGAGUGUGCACAGAUGUAAGAUAAUUUUGUGAAAUAAUGUACCAUAGACUCUCACCAACUGUAUAUACCUGUACAUAUCAGAAGCAAAUAAAGAGCUC | 0.265 |
| UCCUUCCGACAGGAGCUGACUCAUGUCAGGAUGGCAGGCCUGGUAUCUUGCUCGGGCCCUAGCUGUUGGGGUUCUCAUGGGUUGCACUGACCAUACUGCUUACGUCUUAG | 0.492 |
| AAGGAUGUGAAAGUUUUUAUAUGUAUAAUGUUUUAUACACUUUUUAACUGGUUGCACUACCCGUGAAGAAUUCAUGGGACAGCCACUGCUGAGUGACUAACAUGAUGCAC | 0.512 |
| ACUGUAUACAUCUGUUUAAUUUGAACACACUACAUCGUAGGGUGACUGAUUUUUGAAGUAUACCACAGACAAAAAGUUGUUACUAUGGUAAACUAAGCUAGUUUAACACU | 0.274 |
| CAGCUUUUGGGAUAGCCCCCGCUCUAGUUGUUCAGAACCUACAUGAAAACCAGGCUGCAUGUUCUGCUAUGUAUGUGUGGGAAGCCUAGGUCCAGCCUGUGUAUGUUCUU | 31 |

Study 4 — method: protein binding microarray; form: double-stranded DNA, one strand shown; medium: in vitro; concentration: not given; relative to: not given; direction: higher = stronger binding
Target: Histone acetyltransferase KAT6A, winged helix 2, GST fusion (KAT6A, Homo sapiens, UniProt Q92794, residues 85-181)
Notes: 8-mer, flanks averaged, mean of 2 arrays, mostly near background
Residues (chain): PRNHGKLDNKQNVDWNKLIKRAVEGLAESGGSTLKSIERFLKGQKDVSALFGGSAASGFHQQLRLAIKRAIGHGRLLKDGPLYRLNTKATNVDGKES
| Sequence | E-score |
| --- | --- |
| ACGGGATG | -0.17 |
| TGAAGCCA | -0.0726 |
| GCTACCTA | -0.012 |
| ATTCGAGG | 0.0355 |
| ATTTTAAG | -0.0378 |
| GTAGCTAC | -0.131 |
| ACAGAGTG | 0.0731 |
| ACACTTAG | -0.161 |
| AATGCGCG | 0.141 |
| CCAAACGG | 0.024 |
| GCTTGTCA | 0.193 |
| GCGCACTA | 0.0373 |
| ATATGGGA | -0.149 |
| CGGACACC | -0.0874 |
| ATGGGCAG | 0.128 |
| GGATTAGA | -0.107 |
| GTGATCAC | -0.108 |
| TGGATCAA | -0.0107 |
| GCCTGGTA | -0.0899 |
| CATCGGTC | -0.0328 |
| AGCCTGCC | 0.00778 |
